Measurements of several laboratories.
Target: Peroxisome proliferator-activated receptor gamma (PPARG, Homo sapiens, UniProt P37231)
Sequence (P37231 238-503, limits assumed, as in one of the studies): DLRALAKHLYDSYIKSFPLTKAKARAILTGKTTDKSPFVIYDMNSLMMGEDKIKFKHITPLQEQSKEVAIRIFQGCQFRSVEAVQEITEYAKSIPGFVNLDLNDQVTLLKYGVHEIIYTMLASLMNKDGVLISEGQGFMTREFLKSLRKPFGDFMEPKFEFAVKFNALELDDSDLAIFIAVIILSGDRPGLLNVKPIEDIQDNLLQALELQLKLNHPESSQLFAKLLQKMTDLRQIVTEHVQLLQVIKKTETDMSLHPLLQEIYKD

CC(C)(Oc1ccc(CCNC(=O)c2ccc(Cl)cc2)cc1)C(=O)O — EC10 (reporter gene, agonist, β-lactamase reporter; HEK293-H cells; 24 h, nominal concentration; relative to: 10% of rosiglitazone maximum effect): 3.09 µM
CN(CCOc1ccc(C[C@H](Nc2ccccc2C(=O)c2ccccc2)C(=O)O)cc1)c1ccccn1.O — breakthrough time (binding, frontal affinity chromatography-MS; 0.5 µM, equimolar ligand mixture): 34.5 min
O=c1[nH]c2ccccc2s1 — specificity ratio (reporter gene, agonist, β-lactamase reporter; HEK293-H cells; nominal concentration; relative to: cytotoxicity IC10 over EC10): 26.7
CCCc1nc2c(C)cc(-c3nc4ccccc4n3C)cc2n1Cc1ccc(-c2ccccc2C(=O)O)cc1 — binding free energy (ITC; binary complex no Med1): -7.11 kcal/mol
CC(C)(Oc1ccc(Cl)cc1)C(=O)O — EC10 (reporter gene, agonist, β-lactamase reporter; HEK293-H cells; freely dissolved concentration): 18.6 µM
CCO[C@@H](Cc1ccc(OCCn2c(C)ccc2-c2ccc(SC)cc2)cc1)C(=O)O — Emax (receptor activation, agonist, cell-based): 149%
CC[C@@H](Oc1cccc(CN(CCCOc2ccc(OC)cc2)c2nc3ccccc3o2)c1)C(=O)O — binding free energy (ITC; binary complex no Med1): -6.86 kcal/mol
COC(=O)c1cn(C)c2ccc(-c3cccnc3)cc12 — activation (reporter gene, Gal4 hybrid reporter; 10 µM; relative to: vehicle): 1.26 fold
CCO[C@H](COc1ccc(C(F)(F)F)cc1)CSc1ccc(OCC(=O)O)c(C)c1 — Emax (receptor activation, agonist, cell-based): 83%
CCN1CCN(c2cc(N3CCN(CC)CC3)nc(NCCNc3ccnc4cc(Cl)ccc34)n2)CC1 — activation (reporter gene, Gal4 hybrid reporter; 20 µM; relative to: vehicle): 2.11 fold
CC1(C)C=Cc2c(ccc3c2OC[C@@H](c2ccc(O)cc2O)C3)O1 — binding free energy (ITC; binary complex no Med1): -7.59 kcal/mol
CCC(=O)NS(=O)(=O)c1ccc(-c2c(-c3ccccc3)noc2C)cc1 — activation (reporter gene, Gal4 hybrid reporter; 50 µM; relative to: vehicle): 4.22 fold
CCOC(=O)c1ccc(NC(=O)c2cc3cc(S(N)(=O)=O)ccc3oc2=O)cc1 — fold change (ELISA, refers to: PPARγ protein; concentration not given; relative to: control): 1.6

For quick reference, copied from above:
CCO[C@@H](Cc1ccc(OCCn2c(C)ccc2-c2ccc(SC)cc2)cc1)C(=O)O — Emax (receptor activation, agonist, cell-based): 149%
